Experimental data gathered from unrelated publications.
Each line is one published result; not all experiments were run side by side. ± gives the spread as reported.
CNR2: Cannabinoid receptor 2 (CNR2, Homo sapiens, UniProt P34972)
UniProt P34972, sequence (whole entry, unmodified, looked up): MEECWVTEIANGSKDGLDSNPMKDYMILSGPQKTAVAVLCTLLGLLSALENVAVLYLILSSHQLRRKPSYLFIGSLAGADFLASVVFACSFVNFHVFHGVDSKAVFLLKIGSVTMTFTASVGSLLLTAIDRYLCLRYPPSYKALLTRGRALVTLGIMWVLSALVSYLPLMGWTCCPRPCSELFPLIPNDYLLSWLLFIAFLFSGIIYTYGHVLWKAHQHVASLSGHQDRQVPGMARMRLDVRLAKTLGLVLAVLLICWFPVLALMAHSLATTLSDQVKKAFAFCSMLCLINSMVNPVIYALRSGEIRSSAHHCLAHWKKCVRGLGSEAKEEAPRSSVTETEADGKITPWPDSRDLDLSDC

`CC(C)(CCCCCCN=C=S)c1cc(O)c2c(c1)OC(C)(C)C1CCC(CO)CC21` (single isomer, unassigned; (-)) has a Ki of 4.5 nM (CNR2; ligand displacement, radioligand).
`O=C1/C(=C/c2cn(Cc3ccc(Cl)cc3)c3ccccc23)N2CCC1CC2` has an IC50 of 7.5 ± 1.8 nM (CNR2; cAMP level, agonist; CHO expressing human CB2; with: 10 µM forskolin).
`CC1(C)Oc2cc([C@]34CC5CC(C[C@@](CN=[N+]=[N-])(C5)C3)C4)cc(O)c2[C@@H]2C[C@H](O)CC[C@H]21` gave an EC50 of > 3000 nM (CNR2; cAMP inhibition, agonist; HEK293 expressing hCB2; with: forskolin).
The IC50 of `COc1ccc(C(=O)c2c(C)n(CCN3CCOCC3)c3cc(I)ccc23)cc1` is reported as 12.3 ± 2.47 nM (CNR2).
`CCCCCCC[C@@H](C/C=C/CCC(=O)N(C)C/C(=C/Cl)C/C(=C\C(=O)N1CC(O)CC1=O)OC)OC` (some centres unmarked) gave an EC50 of 8800 nM (CNR2; cAMP, agonist).
The EC50 of `C[C@@]1(Cc2ccccc2)COc2cc(C(=O)N3CCCCC3)ccc21` is reported as 108 nM (CNR2; GTPγS binding, agonist; cell membranes).
`CCC(=C(c1ccc(OCCN2CCCC2)cc1)c1ccc(OCCN2CCCC2)cc1)c1ccccc1` gave a Ki of 43.7 nM (CNR2; ligand displacement, radioligand; cell membranes).
`CCCCC/C=C\C/C=C\C/C=C\C/C=C\CCCC(=O)OC(CO)CO` gave an EC50 of 2140 nM (CNR2 (Homo sapiens, UniProt P34972, Q63R); β-arrestin 2 recruitment, agonist, BRET; HEK293 coexpressing GRK4).
For `CN1CCCCC1Cn1cc(C(=O)c2ccccc2I)c2ccccc21` (centres unmarked), the Ki was 9.2 nM (CNR2; ligand displacement, radioligand).
`C[C@H](/C=C\C/C=C\C/C=C\CCCC(=O)N[C@H](C)CO)/C=C\CCCCCO` has a Ki of 55.2 nM (CNR2; ligand displacement, radioligand; cell membranes).
For `CCCCCn1cc(C(=O)C2C(C)(C)C2(C)C)c2ccccc21`, the IC50 was 83.6 ± 22 nM (CNR2).

Repeated from above:
`CC(C)(CCCCCCN=C=S)c1cc(O)c2c(c1)OC(C)(C)C1CCC(CO)CC21` (single isomer, unassigned; (-)) has a Ki of 4.5 nM (CNR2; ligand displacement, radioligand).
